Assay results of several laboratories.
A part holds a random share of what one study measured. Changes are numbered by the printed parent chain.

Sample 1
Target: HLA class I histocompatibility antigen, A alpha chain, allele A*80:01 (Homo sapiens, UniProt P04439)
Observed: peptide-MHC binding
Molecule type: peptide
Concentration: concentration not given
Endpoint: binding
YFTFDLTAL: inactive
AELIDSFTW: inactive
LTKEEFTRY: inactive
KTRMEDYYL: inactive

Sample 2
Target: Histone acetyltransferase KAT6A, winged helix 1, GST fusion (KAT6A, Homo sapiens, UniProt Q92794, residues 1-85)
Method: protein binding microarray
Molecule type: double-stranded DNA, one strand shown
Matrix: in vitro
Concentration: not given
Notes: 8-mer, flanks averaged, mean of 2 arrays, mostly near background
Relative to: not given
Reading: higher = stronger binding
Endpoint: E-score
Target sequence (chain): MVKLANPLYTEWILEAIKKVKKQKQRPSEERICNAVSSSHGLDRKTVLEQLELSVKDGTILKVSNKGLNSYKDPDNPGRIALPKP
ACTTTTGC: -0.114
AGTCGCTC: -0.0388
ATCCCCGC: 0.37
AATTGTGT: -0.158
AAAAGCTT: 0.00783
CTCTTTCC: -0.0205
ACGAGGTA: -0.0648
TAACCATA: -0.00947

Sample 3
Target: CCNB3, cyclin fold, Cln2 fusion (human)
Method: yeast growth competition, sequencing
Matrix: yeast
Notes: strong parent motif
Relative to: not given
Reading: higher = stronger binding
Endpoint: normalised enrichment score
Starting sequence: viral docking peptide; YKVKRRLVFGADD; partner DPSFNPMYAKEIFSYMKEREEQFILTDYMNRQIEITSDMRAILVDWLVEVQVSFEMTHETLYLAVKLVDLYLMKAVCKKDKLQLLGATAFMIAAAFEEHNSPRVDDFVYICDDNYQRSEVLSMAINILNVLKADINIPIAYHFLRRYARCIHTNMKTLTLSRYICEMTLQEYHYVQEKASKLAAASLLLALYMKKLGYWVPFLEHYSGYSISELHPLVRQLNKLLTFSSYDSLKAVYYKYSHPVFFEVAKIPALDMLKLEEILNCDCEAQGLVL
YKVKTRLVFGADD [R5T]: 0.281
YKVKRRLVFGGDD [A11G]: 2.17
YKVKRRLVFGYDD [A11Y]: 1.55
YEVKRRLVFGADD [K2E]: 2.15
YKVKRRLVQGADD [F9Q]: -0.0697
YNVKRRLVFGADD [K2N]: 2.79
YKVKRRLVIGADD [F9I]: 0.355
YKVDRRLVFGADD [K4D]: 0.059
YKVKRRLVFEADD [G10E]: 2.6
YKVKQRLVFGADD [R5Q]: 0.393
YKVKYRLVFGADD [R5Y]: 0.144
YKVKRRLVFSADD [G10S]: 1.74
YKVARRLVFGADD [K4A]: 0.646
YKFKRRLVFGADD [V3F]: 0.834
YKIKRRLVFGADD [V3I]: 1.18
YKVKRRLVFGAAD [D12A]: 1.46
YKVKRRLVFGAYD [D12Y]: 1.32
YKVKRRLVFGFDD [A11F]: 1.73

Sample 4
Target: Prothrombin, mature alpha-thrombin (F2, Homo sapiens, UniProt P00734)
Method: aptamer microarray, sandwich
Molecule type: DNA with 2'F-ANA
Matrix: in vitro
Concentration: 200 nM
Notes: whole 15-mer aptamer, many near background
Together with: Cy3 exosite-II aptamer, 400 nM
Reading: higher = stronger binding
Endpoint: mean fluorescence intensity
Sequence: GGTTGGTGTGGTTGG
2'F-ANA at 1 2 3 6 10: 64.6 a.u.
2'F-ANA at 1 5 6 7 9 10 11: 78.1 a.u.
2'F-ANA at 2 3 5 8 10 11 12 13 14 15: 62.2 a.u.
2'F-ANA at 1 3 5 9 11 15: 57.1 a.u.
2'F-ANA at 1 7 8 10 13 14: 58.8 a.u.
2'F-ANA at 1 7 12 14 15: 78.8 a.u.
2'F-ANA at 1 2 5 6 7 8 11 13 14 15: 50.8 a.u.
2'F-ANA at 1 2 3 4 8 11 15: 193 a.u.

Some of these lines once more (sample 4):
2'F-ANA at 1 3 5 9 11 15: 57.1 a.u.
2'F-ANA at 1 2 3 6 10: 64.6 a.u.
2'F-ANA at 1 5 6 7 9 10 11: 78.1 a.u.
2'F-ANA at 2 3 5 8 10 11 12 13 14 15: 62.2 a.u.
